Measured values gathered from unrelated publications.
A part holds a random share of what one study measured. Substitutions count along the parent as printed.
Sequence of UniProt Q6XUX3 (whole entry, looked up): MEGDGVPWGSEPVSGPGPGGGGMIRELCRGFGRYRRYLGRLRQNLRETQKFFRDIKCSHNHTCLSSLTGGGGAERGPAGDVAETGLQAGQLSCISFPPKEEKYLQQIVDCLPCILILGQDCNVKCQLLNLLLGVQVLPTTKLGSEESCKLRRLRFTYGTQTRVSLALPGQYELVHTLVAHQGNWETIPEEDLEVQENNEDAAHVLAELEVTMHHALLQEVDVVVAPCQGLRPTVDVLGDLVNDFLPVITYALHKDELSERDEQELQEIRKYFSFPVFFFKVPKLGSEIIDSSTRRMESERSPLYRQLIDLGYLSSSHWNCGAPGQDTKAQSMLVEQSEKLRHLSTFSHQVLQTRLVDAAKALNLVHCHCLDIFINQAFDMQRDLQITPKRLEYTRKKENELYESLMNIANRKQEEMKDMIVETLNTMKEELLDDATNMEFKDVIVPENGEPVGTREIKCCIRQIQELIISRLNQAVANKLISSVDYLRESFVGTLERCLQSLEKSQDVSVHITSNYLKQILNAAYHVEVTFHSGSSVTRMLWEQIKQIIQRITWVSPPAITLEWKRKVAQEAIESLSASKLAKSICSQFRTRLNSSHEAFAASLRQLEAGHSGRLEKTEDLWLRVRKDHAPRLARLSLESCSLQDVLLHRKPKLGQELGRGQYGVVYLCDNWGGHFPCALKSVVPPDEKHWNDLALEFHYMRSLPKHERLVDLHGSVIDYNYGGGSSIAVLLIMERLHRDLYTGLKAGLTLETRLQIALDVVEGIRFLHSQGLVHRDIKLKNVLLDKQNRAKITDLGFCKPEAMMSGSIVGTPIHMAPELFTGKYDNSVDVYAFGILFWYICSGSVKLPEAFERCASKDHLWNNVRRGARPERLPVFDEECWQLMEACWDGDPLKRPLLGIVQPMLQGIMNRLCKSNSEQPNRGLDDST

Series 1 — technique: universal PBM; molecule type: double-stranded DNA, one strand shown; medium: in vitro; concentration: 600 nM; reading: higher = stronger binding
Target: Sal-like protein 4, full length isoform A (SALL4, Homo sapiens, UniProt Q9UJQ4, residues 1-1053)
Sequence of UniProt Q9UJQ4 (whole entry, looked up): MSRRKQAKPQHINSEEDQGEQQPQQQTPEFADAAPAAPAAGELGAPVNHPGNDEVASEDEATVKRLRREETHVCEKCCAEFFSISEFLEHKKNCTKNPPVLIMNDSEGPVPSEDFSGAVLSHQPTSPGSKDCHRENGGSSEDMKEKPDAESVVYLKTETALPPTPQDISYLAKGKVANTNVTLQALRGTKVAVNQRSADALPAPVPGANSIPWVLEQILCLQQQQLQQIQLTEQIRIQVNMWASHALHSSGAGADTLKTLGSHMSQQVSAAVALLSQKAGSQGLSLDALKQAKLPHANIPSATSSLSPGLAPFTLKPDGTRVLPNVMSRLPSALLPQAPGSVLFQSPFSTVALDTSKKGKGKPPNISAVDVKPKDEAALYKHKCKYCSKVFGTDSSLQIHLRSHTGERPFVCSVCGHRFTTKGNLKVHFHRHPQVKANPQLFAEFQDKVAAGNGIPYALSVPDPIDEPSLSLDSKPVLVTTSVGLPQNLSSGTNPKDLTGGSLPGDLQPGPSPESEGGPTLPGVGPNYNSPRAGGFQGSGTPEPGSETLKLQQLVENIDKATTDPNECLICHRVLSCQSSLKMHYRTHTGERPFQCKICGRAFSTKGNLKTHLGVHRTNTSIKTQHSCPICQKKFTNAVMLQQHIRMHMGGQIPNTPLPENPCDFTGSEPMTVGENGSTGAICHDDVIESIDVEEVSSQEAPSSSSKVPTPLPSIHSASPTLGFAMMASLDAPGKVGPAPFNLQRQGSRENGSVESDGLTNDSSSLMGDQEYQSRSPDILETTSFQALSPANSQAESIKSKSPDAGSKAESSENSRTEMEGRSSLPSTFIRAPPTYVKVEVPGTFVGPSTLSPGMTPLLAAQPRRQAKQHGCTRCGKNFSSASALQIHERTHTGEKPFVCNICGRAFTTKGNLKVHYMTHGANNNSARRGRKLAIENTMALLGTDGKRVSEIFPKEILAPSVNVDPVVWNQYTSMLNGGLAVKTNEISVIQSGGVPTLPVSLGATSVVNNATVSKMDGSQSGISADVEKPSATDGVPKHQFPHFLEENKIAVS
Setting: 8-mer, flanks averaged, mean of replicates
With `CGCTACAA` the E-score was -0.0274.
The E-score of `TATACCCA` is reported as 0.0648.
For `AGCGCTTA`, the E-score was -0.141.
`AGCCTTTA` has an E-score of 0.139.
The E-score of `CGGGGCTA` is reported as -0.312.
With `AAACCACA` the E-score was 0.113.
With `GTCTCAGA` the E-score was -0.0398.
For `CGCATGCA`, the E-score was -0.0473.

Series 2 — technique: RNA Bind-n-Seq; molecule type: RNA; medium: in vitro; concentration: not given; baseline: input RNA pool; reading: higher = stronger binding
Target: RING finger protein unkempt homolog, zinc fingers 1-6, GST-SBP tag (UNK, Homo sapiens, UniProt Q9C0B0, residues 30-357)
Sequence of UniProt Q9C0B0 (30-357, looked up): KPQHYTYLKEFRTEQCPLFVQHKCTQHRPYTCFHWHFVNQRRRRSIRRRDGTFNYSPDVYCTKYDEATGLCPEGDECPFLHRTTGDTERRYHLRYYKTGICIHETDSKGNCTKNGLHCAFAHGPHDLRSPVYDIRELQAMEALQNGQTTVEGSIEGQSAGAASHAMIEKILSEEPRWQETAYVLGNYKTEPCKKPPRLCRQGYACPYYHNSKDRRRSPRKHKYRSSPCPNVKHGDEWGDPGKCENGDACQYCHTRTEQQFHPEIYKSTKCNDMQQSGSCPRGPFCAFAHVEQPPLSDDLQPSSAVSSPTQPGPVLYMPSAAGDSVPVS
Setting: RNA with constant flanks, human and mouse sites, ends assumed
`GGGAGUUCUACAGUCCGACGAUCGAGAGAGAAAAACUCGUGAAAGCUGAAAGAAAAUUCAUUGAAGAUAGGGUUAAAAAAAUAAUAGAACUGAAAAGGAAAGUCUGUGGCGAUUCAGAUAAAGGAUUUGUUGUUAUUAAUCAACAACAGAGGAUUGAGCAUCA` has a bound/input enrichment of 19.6 ratio.
`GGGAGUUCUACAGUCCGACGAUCGAUGUCUGUGUGUUCGCAGCACAAGAAGACCUAGAGACCAUGCAAGCAUUCGCUCAGGUUUUUAACAAGCUAAUCAGGCGCUACAAAUACCUGGAGAAAGGUUUUGAAGAUGAAGUUAAACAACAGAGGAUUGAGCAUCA` has a bound/input enrichment of 0.208 ratio.
For `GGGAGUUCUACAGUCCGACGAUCUGAAUAUGAUACUUCUUUAUUCACAGUAUCUGUGUCUCCUGCACCCUUUGGUGUUGCAAUUUUAGGUAUGUGAAAGUAGAUGUUAGCAGGGUUCUCUCCCUAUUUAAAAAUAAAUUUUAACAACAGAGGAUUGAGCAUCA`, the bound/input enrichment was 10.3 ratio.
For `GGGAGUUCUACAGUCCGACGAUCAGUCUCAACACACUGGAACUCUUCGACAACCGGCUGACAACCGUGCCCACGCAGGCCUUUGAGUACCUGUCCAAGCUCCGGGAGCUGUGGCUGCGCAACAACCCCAUCGAAAGCAUCCCACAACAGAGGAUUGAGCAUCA`, the bound/input enrichment was 0.126 ratio.
`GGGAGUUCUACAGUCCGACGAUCGUGCUGAGUGAACUGGAGCCACUGUGUCUGGCAGAACAGGACUUCAUAAGUAAAUUUUUCAAACUACAGCAGCAUCAAAACAUGUCUGCAUCAAUGACUGAAGCAGAAGACCUGGAUGGACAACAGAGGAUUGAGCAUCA` gave a bound/input enrichment of 0.459 ratio.
`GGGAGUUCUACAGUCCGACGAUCAACCACAACGACUGGAUUAAGCAGUAUGAAACACUAGCCGAAAUGGUAGUUCCAAGGUCUAGCAAUGUUCUUUCAGAGGACCAAGACAGUUACCUGUGUAAUGUCACCUUGUUUAGGAAGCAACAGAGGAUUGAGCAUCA` gave a bound/input enrichment of 0.388 ratio.
`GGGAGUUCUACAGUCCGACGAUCGUGAAUUGGCAGCCUCCCUCCGAAGCCAAUGGCAAAAUUACAGGUUACAUCAUAUAUUACAGUACAGAUGUGAAUGCAGAGAUACAUGACUGGGUUAUUGAGCCUGUUGUGGGAAACAGACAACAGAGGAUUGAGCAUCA` has a bound/input enrichment of 0.224 ratio.
`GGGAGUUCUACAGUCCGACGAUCGCAUUUAUCUUUUUUCCUAGUUUUUCUAAUACUAAUGUUAUUUCUUAAAAUUCAGUGAGAUAUAGGAUAAAAUAAUGCUUUGAGAAGAAUGUUUAAUAGAAAAUUAAAAUAACUUUUUCUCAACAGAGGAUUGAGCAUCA` has a bound/input enrichment of 2.53 ratio.

Series 3 — Substitution: R111P; technique: DHFR PCA, deep sequencing; medium: yeast; baseline: wild-type fitted maximum; reading: higher = stronger binding
Target: ABI1, truncated, D143A, DHFR fusion (Arabidopsis thaliana)
Setting: methotrexate growth selection, single substitutions
Parent: PYL1, truncated, DHFR fusion (Arabidopsis thaliana); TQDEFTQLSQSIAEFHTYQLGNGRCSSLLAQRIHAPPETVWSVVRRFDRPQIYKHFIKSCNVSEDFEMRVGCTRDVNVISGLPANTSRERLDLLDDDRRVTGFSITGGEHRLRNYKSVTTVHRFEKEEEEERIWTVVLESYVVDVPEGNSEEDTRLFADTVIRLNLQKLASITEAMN; partner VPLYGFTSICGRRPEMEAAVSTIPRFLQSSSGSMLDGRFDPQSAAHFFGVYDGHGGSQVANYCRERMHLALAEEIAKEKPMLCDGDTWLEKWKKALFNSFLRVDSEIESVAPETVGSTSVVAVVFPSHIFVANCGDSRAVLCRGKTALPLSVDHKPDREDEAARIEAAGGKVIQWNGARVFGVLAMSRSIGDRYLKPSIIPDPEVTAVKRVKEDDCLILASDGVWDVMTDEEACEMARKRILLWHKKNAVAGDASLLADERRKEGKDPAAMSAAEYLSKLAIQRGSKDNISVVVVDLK
For added: (+)-ABA 2500 µM: “relative binding score” read 69%.
added: (+)-ABA 4.8 µM — “relative binding score”: 2.02%.
For added: (+)-ABA 0.032 µM: “relative binding score” read 24.5%.
It gave 11.6% for “relative binding score” (added: (+)-ABA 1.4 µM).
It gave 33.6% for “relative binding score” (added: (+)-ABA 200 µM).
added: (+)-ABA 0 µM — “relative binding score”: 21.8%.

Mixed results
With `COc1ccc(-c2cnc3c(-c4ccsc4)cnn3c2)cc1` the remaining activity was 97.6% (Dual serine/threonine and tyrosine protein kinase (DSTYK, Homo sapiens, UniProt Q6XUX3); enzyme activity, inhibitor; 0.5 µM; baseline: control).
